Experimental data from different studies.
A part holds a random share of what one study measured. ± marks the error that the study gave.

Block 1 — cell line: TZM-bl
Structure (SMILES): CNCc1ccc2c(c1)C[C@H](CNC(=N)N)[C@H]2NC(=O)C(=O)Nc1ccc(Cl)c(F)c1
| target or system | effect on | method | strain | time | IC50 [µM] |
| --- | --- | --- | --- | --- | --- |
| Human immunodeficiency virus 1 | viral infection | Env pseudovirus | 3301.v1.c24 clade AC | – | 8.86 |
| Human immunodeficiency virus 1 | viral infection | Env pseudovirus | ZM53M.PB12 clade C | – | 85.7 |
| Human immunodeficiency virus 1 | viral infection | Env pseudovirus | 6405.v4.c34 clade D | – | 6.01 |
| HIV-1 | pseudovirus infection | Env pseudovirus neutralisation | clade A | – | 12.6 |
| Human immunodeficiency virus 1 | viral infection | Env pseudovirus | 1054_07_TC4_1499 clade B T/F | – | 0.171 |
| env (Human immunodeficiency virus 1, UniProt Q5G5U9) | pseudovirus infection | luciferase reporter | – | 48 h | 17.2 |
| env (Human immunodeficiency virus 1, UniProt Q27Q59) | pseudovirus infection | luciferase reporter | – | 48 h | 0.794 |

Block 2 — target: HIV-1 TAR RNA; tested at: concentration not given; temperature: 25 °C
| Structure (SMILES) | binding enthalpy ΔH° |
| --- | --- |
| CC(=O)NCCN(CCC(=O)NCCN(CCC(=O)NCCN(CCC(=O)NCCC(N)=O)C(=O)[C@@H](N)Cc1ccccc1)C(=O)[C@@H](N)CCCNC(=N)N)C(=O)[C@@H](N)CCCNC(=N)N | -13.8 ± 0.311 kcal/mol |
| CC(=O)NCCN(CC(=O)NCCN(CC(=O)NCCN(CC(=O)NCCC(N)=O)C(=O)C[C@@H](N)Cc1ccccc1)C(=O)C[C@@H](N)CCCNC(=N)N)C(=O)C[C@@H](N)CCCNC(=N)N | -8.99 ± 0.598 kcal/mol |
| CC(=O)NCCN(CC(=O)NCCN(CC(=O)NCCN(CC(=O)NCCC(N)=O)C(=O)[C@@H](N)Cc1ccccc1)C(=O)[C@@H](N)CCCNC(=N)N)C(=O)[C@@H](N)Cc1ccccc1 | -13.2 ± 0.406 kcal/mol |
| CC(=O)NCCN(CC(=O)NCCN(CC(=O)NCCN(CC(=O)NCCC(N)=O)C(=O)[C@@H](N)CCCNC(=N)N)C(=O)[C@@H](N)CCCCN)C(=O)[C@@H](N)Cc1ccccc1 | -15.9 ± 0.502 kcal/mol |

Single results of other studies
| SMILES | target or system | test | test system | conditions | measurement | value |
| --- | --- | --- | --- | --- | --- | --- |
| F[P-](F)(F)(F)(F)F.OC(Cn1cncn1)(Cn1cc(-[c-]2cccc2)nn1)c1ccc(F)cc1F.[Co+3].c1cc[cH-]c1 (racemic) | Brugia pahangi | motility, Worminator | adult female | 50 µM, 3 d | inhibition | 14% |
| Cc1cc(=O)oc2cc(NC(=O)[C@@H]3CCC(=O)N3)ccc12 | DNA gyrase (gyrA/gyrB, Escherichia coli, UniProt P0AES4+P0AES6) | supercoiling activity, inhibitor, relaxed plasmid supercoiling | – | 100 to 1000 µM, with: gyrase 10 nM | inhibition | no inhibition |
| C[C@H](Nc1ncnc(N)c1C#N)c1c(-c2ccccc2)[nH]c2c(Cl)cccc2c1=O | – | – | CB17 SCID mice, xenograft, plasma | oral, 200 mg/kg once daily, day 14 | half-life | 2.3 ± 0.1 h |

Some of these lines once more (block 2):
| Structure (SMILES) | binding enthalpy ΔH° |
| --- | --- |
| CC(=O)NCCN(CCC(=O)NCCN(CCC(=O)NCCN(CCC(=O)NCCC(N)=O)C(=O)[C@@H](N)Cc1ccccc1)C(=O)[C@@H](N)CCCNC(=N)N)C(=O)[C@@H](N)CCCNC(=N)N | -13.8 ± 0.311 kcal/mol |
| CC(=O)NCCN(CC(=O)NCCN(CC(=O)NCCN(CC(=O)NCCC(N)=O)C(=O)C[C@@H](N)Cc1ccccc1)C(=O)C[C@@H](N)CCCNC(=N)N)C(=O)C[C@@H](N)CCCNC(=N)N | -8.99 ± 0.598 kcal/mol |
